Measurements gathered from unrelated publications.
Lines come from different studies, so protocols differ. ± marks the error that the study gave.
UniProt P38489, sequence (whole entry, looked up): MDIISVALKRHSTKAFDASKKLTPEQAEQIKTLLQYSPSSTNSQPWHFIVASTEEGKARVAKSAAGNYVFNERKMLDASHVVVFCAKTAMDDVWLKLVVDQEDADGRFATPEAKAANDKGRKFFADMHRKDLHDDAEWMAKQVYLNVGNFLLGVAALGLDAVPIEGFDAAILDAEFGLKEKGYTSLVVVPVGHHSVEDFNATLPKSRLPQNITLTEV
UniProt Q14680, sequence (whole entry, looked up): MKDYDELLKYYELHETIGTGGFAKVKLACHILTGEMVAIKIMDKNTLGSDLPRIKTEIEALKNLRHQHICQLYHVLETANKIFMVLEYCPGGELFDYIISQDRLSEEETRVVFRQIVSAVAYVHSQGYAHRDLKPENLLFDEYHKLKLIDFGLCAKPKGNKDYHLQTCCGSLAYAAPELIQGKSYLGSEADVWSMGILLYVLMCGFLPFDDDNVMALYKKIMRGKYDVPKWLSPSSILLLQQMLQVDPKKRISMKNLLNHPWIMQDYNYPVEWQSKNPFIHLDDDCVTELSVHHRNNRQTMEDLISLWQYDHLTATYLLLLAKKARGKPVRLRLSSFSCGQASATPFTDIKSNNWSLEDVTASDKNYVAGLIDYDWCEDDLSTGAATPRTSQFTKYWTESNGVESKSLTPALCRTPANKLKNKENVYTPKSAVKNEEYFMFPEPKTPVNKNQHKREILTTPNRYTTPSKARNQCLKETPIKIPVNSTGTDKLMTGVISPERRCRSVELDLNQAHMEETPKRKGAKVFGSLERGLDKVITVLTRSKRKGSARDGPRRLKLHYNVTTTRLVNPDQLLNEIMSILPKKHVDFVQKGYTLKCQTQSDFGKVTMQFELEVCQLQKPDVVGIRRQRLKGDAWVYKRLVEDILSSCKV
UniProt O55137, sequence (whole entry, looked up): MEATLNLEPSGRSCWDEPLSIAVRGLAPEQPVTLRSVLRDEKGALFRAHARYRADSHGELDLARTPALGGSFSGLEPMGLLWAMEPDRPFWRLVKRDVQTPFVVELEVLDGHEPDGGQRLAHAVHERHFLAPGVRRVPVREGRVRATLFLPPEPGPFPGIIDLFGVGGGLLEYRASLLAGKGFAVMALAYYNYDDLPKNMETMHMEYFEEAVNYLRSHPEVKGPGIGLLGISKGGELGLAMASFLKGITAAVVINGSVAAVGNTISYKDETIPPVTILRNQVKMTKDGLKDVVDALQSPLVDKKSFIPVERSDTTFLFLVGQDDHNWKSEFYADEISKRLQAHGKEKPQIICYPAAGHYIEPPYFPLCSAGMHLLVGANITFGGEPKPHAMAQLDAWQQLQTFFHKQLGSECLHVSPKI
UniProt Q14164, sequence (whole entry, looked up): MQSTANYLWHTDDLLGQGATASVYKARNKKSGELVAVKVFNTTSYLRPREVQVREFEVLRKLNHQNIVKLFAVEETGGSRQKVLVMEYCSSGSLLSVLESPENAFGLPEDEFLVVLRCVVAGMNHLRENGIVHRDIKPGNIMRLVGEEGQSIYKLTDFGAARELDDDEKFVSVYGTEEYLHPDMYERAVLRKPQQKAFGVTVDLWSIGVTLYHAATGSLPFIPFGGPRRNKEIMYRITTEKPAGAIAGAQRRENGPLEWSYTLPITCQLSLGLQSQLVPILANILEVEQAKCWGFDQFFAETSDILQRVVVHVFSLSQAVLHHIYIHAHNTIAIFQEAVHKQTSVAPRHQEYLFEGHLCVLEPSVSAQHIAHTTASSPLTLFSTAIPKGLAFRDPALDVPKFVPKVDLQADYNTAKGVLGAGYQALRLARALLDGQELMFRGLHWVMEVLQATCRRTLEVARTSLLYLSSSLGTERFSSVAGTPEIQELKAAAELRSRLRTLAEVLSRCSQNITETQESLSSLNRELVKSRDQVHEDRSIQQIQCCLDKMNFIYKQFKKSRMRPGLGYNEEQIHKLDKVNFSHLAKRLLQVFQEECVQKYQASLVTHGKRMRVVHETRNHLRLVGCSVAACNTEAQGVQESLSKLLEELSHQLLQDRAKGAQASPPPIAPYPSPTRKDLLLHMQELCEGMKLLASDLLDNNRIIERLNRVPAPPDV
UniProt O15264, sequence (whole entry, looked up): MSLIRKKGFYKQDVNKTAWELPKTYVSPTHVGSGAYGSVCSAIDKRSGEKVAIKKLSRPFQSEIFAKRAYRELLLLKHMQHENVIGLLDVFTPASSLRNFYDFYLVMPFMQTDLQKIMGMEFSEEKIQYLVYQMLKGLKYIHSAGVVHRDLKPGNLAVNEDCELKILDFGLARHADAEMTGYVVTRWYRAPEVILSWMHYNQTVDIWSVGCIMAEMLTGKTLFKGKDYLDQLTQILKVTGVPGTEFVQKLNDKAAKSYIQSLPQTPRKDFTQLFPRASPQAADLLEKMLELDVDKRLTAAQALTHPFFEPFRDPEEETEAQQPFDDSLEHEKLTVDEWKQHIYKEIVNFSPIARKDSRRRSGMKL
UniProt P30530, sequence (whole entry, looked up): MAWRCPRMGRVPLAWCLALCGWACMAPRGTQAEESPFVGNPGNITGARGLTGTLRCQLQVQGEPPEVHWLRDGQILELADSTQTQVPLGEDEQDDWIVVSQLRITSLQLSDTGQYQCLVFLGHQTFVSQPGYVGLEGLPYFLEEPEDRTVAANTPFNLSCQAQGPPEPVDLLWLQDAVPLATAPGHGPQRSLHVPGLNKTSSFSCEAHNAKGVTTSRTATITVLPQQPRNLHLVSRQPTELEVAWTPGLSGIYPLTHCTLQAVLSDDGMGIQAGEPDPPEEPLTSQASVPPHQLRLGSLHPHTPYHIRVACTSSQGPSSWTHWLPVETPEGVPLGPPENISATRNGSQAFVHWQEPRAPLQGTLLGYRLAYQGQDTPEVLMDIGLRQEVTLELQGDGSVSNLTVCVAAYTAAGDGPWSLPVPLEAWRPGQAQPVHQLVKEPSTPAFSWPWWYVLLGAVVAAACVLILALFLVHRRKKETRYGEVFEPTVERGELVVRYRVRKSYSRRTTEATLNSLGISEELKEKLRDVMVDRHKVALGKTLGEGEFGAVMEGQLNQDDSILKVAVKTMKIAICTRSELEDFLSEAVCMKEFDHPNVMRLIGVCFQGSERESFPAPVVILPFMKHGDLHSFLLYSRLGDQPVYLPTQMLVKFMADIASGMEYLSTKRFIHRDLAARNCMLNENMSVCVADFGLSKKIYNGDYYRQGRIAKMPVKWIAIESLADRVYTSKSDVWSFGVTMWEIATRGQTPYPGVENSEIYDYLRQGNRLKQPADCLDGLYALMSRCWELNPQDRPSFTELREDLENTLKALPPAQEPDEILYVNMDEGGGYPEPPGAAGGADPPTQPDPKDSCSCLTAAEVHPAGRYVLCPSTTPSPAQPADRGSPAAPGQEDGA
UniProt P43235, sequence (whole entry, looked up): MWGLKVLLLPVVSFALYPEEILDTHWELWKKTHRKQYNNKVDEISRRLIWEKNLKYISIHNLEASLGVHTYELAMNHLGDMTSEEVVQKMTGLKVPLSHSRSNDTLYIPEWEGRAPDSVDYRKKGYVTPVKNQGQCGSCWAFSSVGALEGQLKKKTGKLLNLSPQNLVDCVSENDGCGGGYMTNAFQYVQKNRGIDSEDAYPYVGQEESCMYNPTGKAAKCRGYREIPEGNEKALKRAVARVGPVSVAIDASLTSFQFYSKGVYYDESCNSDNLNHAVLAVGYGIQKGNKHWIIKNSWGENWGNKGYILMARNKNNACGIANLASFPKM
UniProt P33533, sequence (whole entry, looked up): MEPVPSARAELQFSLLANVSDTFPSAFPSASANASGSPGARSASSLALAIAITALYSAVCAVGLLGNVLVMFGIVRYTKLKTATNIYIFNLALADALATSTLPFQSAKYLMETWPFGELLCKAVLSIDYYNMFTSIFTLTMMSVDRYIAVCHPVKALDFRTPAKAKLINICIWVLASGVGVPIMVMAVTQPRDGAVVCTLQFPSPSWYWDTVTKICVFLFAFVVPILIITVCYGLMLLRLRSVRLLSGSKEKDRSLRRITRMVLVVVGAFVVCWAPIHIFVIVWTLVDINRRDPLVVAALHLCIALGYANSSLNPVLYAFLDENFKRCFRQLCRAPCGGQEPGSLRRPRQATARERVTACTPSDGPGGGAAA
UniProt P00761, sequence (whole entry, looked up): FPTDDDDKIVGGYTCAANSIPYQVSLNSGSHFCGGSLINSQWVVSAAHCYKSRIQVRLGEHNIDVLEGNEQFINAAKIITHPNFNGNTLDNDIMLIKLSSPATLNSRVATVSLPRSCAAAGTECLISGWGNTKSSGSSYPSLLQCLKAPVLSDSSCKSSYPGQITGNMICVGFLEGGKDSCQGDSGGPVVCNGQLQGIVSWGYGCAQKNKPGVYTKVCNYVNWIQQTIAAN
UniProt Q9ULC6, sequence (whole entry, looked up): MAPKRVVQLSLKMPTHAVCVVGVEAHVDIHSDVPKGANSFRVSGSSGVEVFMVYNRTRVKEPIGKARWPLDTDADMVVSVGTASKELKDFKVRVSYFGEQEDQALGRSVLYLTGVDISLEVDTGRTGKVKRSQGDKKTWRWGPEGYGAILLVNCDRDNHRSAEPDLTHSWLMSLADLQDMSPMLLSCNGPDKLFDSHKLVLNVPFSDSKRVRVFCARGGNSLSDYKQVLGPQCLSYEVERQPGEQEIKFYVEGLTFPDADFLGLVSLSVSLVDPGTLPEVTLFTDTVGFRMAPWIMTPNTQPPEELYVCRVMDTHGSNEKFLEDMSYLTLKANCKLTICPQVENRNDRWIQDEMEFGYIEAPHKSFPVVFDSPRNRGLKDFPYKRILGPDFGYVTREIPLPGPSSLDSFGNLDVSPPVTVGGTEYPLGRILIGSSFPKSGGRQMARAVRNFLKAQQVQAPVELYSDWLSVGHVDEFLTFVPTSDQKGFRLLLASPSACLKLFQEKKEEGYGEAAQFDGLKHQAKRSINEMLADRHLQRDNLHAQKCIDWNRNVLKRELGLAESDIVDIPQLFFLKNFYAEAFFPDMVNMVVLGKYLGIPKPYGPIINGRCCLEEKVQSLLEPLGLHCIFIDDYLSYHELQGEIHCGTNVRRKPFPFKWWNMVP

SMILES | target or system | assay | test system | setting | scale | quantity | result
COc1c(N2CC3CCCNC3C2)c(F)cc2c(=O)c(C(=O)OCc3cnc([N+](=O)[O-])n3C)cn(C3CC3)c12 (stereo not drawn) | nfsB (Escherichia coli K-12, UniProt P38489) | substrate | – | together with: NADH 100 µM | – | kcat | 0.0975 s⁻¹
COCC1CCCCN1C(=O)n1cc(C(O)(c2ccccc2)c2ccccc2)nn1 (stereo not drawn) | Acot1 (Mus musculus, UniProt O55137) | probe labelling, inhibitor, competitive ABPP-SILAC | mouse T cells | concentration not given, 4 h, protein level | reference: treated over DMSO cells, lower = stronger inhibition | SILAC activity ratio | 1.02
Oc1ccc(C[C@@H]2CN([C@H](Cc3ccc4ccccc4c3)CN3CCC[C@H]3CN3CCNC[C@@H]3Cc3ccc4ccccc4c3)CCN2CCCC2CCCC2)cc1 | Oprd1 (Rattus norvegicus, UniProt P33533) | radioligand binding | rat brain membranes | 500 nM, pH 7.5, 25 °C, together with: 2 nM [3H]DPDPE | – | remaining binding | 90.8%
CN(C)CCCSC(=S)N1CCN(C(=O)/C=C/c2coc3ccccc3c2=O)CC1 | Nucleoprotein (N, Tomato spotted wilt virus, UniProt P25999, R94A/Y184A) | binding, microscale thermophoresis | – | 1.953 µM | dose series | MST response | 0.683 a.u.
O=C1NC2(CC2)COc2ncc(F)cc2[C@H]2COCCN2c2ccn3ncc1c3n2 | – | – | Sprague-Dawley rat, male, serum | oral, 10 mg/kg/day, 4 weeks daily, end of recovery period | – | creatinine | 25.4 ± 4 µmol/L
CS(C)(=O)=Nc1ccc(-c2ccc(-c3nc4cc(O[C@@H]5CO[C@H]6[C@@H]5OC[C@H]6O)[nH]c4cc3F)cc2)cc1 | AXL (Homo sapiens, UniProt P30530) | enzyme activity, inhibitor | – | 10 µM | – | inhibition | -3%
Cc1ccc(N2CC3CCC(C2)N3C)cc1C(=O)N[C@H](C)c1cc(-c2cnn(C)c2)nc2ccccc12 | Cathepsin K (CTSK, Homo sapiens, UniProt P43235) | enzyme activity | – | 10 µM | – | remaining activity | 101%
CC(C)[C@H]1NC(=O)C[C@H]2/C=C/CCSSC[C@@H](NC1=O)C(=O)N[C@H](Cc1cccc3ccccc13)C(=O)NCC(=O)O2 | MELK (Homo sapiens, UniProt Q14680) | enzyme activity, inhibitor | – | 10 µM | – | inhibition | 17.6%
CC(=O)N[C@H]1[C@@H](O)[C@H](O)[C@@H](CO)O[C@H]1O | N-acetylmannosamine kinase (nanK, Haemophilus influenzae, UniProt Q4QP43, T131V) | binding | – | – | – | TΔS | 1.94 kcal/mol
N[C@H](C(=O)N1CCCC1)C1CCN(c2nccc3c(-c4ncc(Cl)cc4Cl)cccc23)CC1 | PADI1 (Homo sapiens, UniProt Q9ULC6) | enzyme activity | – | 3.84 µM, together with: Ca2+ 0.25 mM | – | kcat | 0.0194 s⁻¹
N[C@H](Cc1ccccc1)P(=O)(O)O | PAL1 (Petroselinum crispum, UniProt P24481, Y110F) | binding, ITC | – | – | – | ΔG | -7.2 kcal/mol
O=C1NC(=O)c2c1c1cc(F)c[n+]3c1c1c2c2cc(O)ccc2[n]1[Ru-4]312([N]=C=S)[S+]3CC[S+]1CC[S+]2CC3 (stereo not drawn) | MAPK13 (Homo sapiens, UniProt O15264) | enzyme activity | – | 100 nM, human enzyme, together with: 10 µM ATP | reference: untreated | remaining activity | 78%
OB(O)c1cnn(-c2cccc(Cl)c2)c1 | Trypsin (Sus scrofa, UniProt P00761) | – | – | – | reference: Ki trypsin over Ki AmpC | selectivity ratio | 3450
CCOC(=O)[C@@H]1Cc2c(cc([N+](=O)[O-])cc2[N+](=O)[O-])[C@H](O)[C@]12C(=O)Nc1ccc(Br)cc12 | KIT (Homo sapiens, UniProt P10721, T670I/V559D) | binding, competition with immobilised ligand | – | 0.1 µM | – | remaining binding | 95%
CN(C)[C@H]1C[C@@]23CC[C@@]4(O2)C(=CC[C@]2(C)[C@@H](c5ccc6ccncc6c5)CC[C@H]24)C=C3[C@@H](O)[C@@H]1O | IKBKE (Homo sapiens, UniProt Q14164) | ATP probe labelling, inhibitor, KiNativ profiling | – | 0.1 µM | – | inhibition | -8.4%

For quick reference, copied from above:
SMILES | target or system | assay | test system | setting | scale | quantity | result
CCOC(=O)[C@@H]1Cc2c(cc([N+](=O)[O-])cc2[N+](=O)[O-])[C@H](O)[C@]12C(=O)Nc1ccc(Br)cc12 | KIT (Homo sapiens, UniProt P10721, T670I/V559D) | binding, competition with immobilised ligand | – | 0.1 µM | – | remaining binding | 95%
CC(C)[C@H]1NC(=O)C[C@H]2/C=C/CCSSC[C@@H](NC1=O)C(=O)N[C@H](Cc1cccc3ccccc13)C(=O)NCC(=O)O2 | MELK (Homo sapiens, UniProt Q14680) | enzyme activity, inhibitor | – | 10 µM | – | inhibition | 17.6%
